Earlier results that unrelated publications cite.
Sequence of UniProt Q01959 (whole entry, looked up): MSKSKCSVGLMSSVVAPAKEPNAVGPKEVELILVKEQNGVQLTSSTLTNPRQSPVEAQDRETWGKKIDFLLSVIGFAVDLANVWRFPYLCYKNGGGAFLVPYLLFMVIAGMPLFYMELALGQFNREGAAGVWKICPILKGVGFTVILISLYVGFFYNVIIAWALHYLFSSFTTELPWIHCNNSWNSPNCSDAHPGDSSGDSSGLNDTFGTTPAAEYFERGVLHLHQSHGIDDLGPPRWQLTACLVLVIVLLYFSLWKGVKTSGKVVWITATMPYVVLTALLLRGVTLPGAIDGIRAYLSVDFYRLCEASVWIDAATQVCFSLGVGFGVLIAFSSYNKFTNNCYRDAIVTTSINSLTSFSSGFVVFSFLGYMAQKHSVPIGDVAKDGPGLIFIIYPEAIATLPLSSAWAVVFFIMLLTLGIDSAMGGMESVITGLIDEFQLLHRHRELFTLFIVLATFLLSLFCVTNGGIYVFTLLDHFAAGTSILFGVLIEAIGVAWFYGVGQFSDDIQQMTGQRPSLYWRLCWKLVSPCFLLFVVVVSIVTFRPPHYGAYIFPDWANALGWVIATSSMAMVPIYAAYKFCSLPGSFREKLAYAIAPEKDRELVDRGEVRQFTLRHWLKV
Sequence of UniProt P23975 (whole entry, looked up): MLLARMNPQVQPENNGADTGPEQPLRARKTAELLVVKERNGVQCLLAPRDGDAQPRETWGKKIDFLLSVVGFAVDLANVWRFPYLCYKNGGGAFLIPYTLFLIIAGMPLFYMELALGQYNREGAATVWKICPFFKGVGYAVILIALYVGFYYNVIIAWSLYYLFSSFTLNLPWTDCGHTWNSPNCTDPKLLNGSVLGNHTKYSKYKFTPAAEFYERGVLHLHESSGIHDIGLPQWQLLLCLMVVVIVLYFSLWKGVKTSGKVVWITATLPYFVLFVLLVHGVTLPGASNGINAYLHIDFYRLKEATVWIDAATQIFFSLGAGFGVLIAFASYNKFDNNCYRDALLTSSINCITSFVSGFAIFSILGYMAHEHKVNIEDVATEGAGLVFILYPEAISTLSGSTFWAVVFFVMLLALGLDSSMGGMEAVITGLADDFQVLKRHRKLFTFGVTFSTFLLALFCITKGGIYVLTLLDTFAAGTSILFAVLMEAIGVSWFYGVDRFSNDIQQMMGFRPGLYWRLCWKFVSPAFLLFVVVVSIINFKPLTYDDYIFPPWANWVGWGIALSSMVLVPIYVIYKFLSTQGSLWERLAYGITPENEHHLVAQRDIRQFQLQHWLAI

CSc1cccnc1N1CCN(Cc2nc3ccccc3[nH]2)CC1
IC50 (DRD4; cell-based): > 10000 nM

CCCNc1nc(C#Cc2ccc(Cl)s2)nc2c1ncn2[C@H]1[C@H](O)[C@H](O)[C@]2(C(=O)NC)C[C@H]12
IC50 (SLC6A3 (Homo sapiens, UniProt Q01959); [3H]dopamine uptake, inhibitor): > 8700 nM

CC1=C(C#N)C(c2ccc3[nH]nc(C)c3c2)C(C#N)=C(C)N1
IC50 (MET; cell-based): 2.9 nM

CCc1c2c(nc3ccc(OC(=O)N4CCC(N5CCCCC5)CC4)cc13)-c1cc3c(c(=O)n1C2)COC(=O)[C@]3(O)CC
CYP inhibition (cytochrome P450 isoenzymes; concentration not given): no inhibition

CC1(C)O[C@@H]2[C@@H](CO[C@@]3(COS(N)(=O)=O)OC(C)(C)O[C@@H]23)O1
activity class (Toxoplasma gondii; parasite growth; concentration not given, published screen): inactive

c1ccc(N2CCN(Cc3nc4ccccc4[nH]3)CC2)nc1
Ki (DRD4.2; biochemical): 57.5 nM

CNC(=O)[C@@]12C[C@@H]1[C@@H](n1cnc3c(NC)nc(C#Cc4ccc(Cl)s4)nc31)[C@H](O)[C@@H]2O
IC50 (SLC6A2 (Homo sapiens, UniProt P23975); [3H]noradrenaline uptake, inhibitor): > 10000 nM

O=C(O)[C@@H]1[C@@H](Cn2nnc3ccccc3c2=O)CC[C@H]1C(=O)c1ccc(OCCC2CCOCC2)cc1
IC50 (MMP12; biochemical activity): 80 nM

CC(=O)O[C@@]12CO[C@@H]1C[C@H](O)[C@@]1(C)C(=O)[C@H](O)C3=C(C)[C@@H](OC(=O)[C@H](O)[C@@H](NC(=O)OC(C)(C)C)c4ccccc4)C[C@@](O)([C@@H](OC(=O)c4ccccc4)[C@H]21)C3(C)C
overall survival (human gastric or GEJ adenocarcinoma; dose not given, trial): 7.7 months

For quick reference, copied from above:
CC1(C)O[C@@H]2[C@@H](CO[C@@]3(COS(N)(=O)=O)OC(C)(C)O[C@@H]23)O1
activity class (Toxoplasma gondii; parasite growth; concentration not given, published screen): inactive
